Published values from different studies.
Compare with care: the assays were run in different laboratories. Values joined by “and” are separate records of one study, mostly repeats; a detail may differ. Numbers after ± are the reported error.
lasR: Transcriptional activator protein LasR (lasR, Pseudomonas aeruginosa, UniProt P25084)
Oprm1: Mu-type opioid receptor (Oprm1, Mus musculus, UniProt P42866)
Orco: Orco (Drosophila melanogaster, UniProt Q9VNB5)
MAPK8: Mitogen-activated protein kinase 8 (MAPK8, Homo sapiens, UniProt P45983)
HDAC8: Histone deacetylase 8 (HDAC8, Homo sapiens, UniProt Q9BY41)
FURIN: Furin (FURIN, Homo sapiens, UniProt P09958)

The chains behind the UniProt entries cited, without tags or fusion partners. A line that says so, or that is headed by a name, gives the form on record, which may keep a tag or linker. Residues count along the entry.
UniProt P25084, 1-173 limits assumed: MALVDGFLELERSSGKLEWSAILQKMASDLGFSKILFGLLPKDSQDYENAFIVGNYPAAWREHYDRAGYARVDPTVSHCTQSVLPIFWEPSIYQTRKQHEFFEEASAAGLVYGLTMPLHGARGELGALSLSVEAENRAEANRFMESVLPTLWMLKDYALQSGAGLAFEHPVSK
UniProt P45983, 1-384 isoform 3: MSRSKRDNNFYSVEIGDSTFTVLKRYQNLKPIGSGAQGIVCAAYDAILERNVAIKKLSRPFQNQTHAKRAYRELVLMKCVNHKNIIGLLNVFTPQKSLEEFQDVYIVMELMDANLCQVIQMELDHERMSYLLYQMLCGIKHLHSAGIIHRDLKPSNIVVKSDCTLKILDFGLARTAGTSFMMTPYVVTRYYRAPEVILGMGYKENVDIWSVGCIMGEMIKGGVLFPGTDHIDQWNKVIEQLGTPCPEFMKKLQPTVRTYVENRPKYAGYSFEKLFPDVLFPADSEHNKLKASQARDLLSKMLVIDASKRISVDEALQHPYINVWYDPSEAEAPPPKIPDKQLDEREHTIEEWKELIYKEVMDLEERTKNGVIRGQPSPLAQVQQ
UniProt Q9BY41, whole entry: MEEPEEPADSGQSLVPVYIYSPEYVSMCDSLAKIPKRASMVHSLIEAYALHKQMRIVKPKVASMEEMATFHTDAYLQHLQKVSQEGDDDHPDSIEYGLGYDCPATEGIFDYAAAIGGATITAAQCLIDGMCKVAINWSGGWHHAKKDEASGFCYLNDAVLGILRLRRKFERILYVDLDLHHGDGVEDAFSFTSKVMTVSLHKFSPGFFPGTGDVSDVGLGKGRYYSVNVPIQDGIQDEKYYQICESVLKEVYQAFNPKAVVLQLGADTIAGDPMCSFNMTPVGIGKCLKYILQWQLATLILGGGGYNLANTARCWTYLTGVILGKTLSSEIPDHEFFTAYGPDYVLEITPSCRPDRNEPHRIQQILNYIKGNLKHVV
UniProt P09958, 108-715 limits assumed: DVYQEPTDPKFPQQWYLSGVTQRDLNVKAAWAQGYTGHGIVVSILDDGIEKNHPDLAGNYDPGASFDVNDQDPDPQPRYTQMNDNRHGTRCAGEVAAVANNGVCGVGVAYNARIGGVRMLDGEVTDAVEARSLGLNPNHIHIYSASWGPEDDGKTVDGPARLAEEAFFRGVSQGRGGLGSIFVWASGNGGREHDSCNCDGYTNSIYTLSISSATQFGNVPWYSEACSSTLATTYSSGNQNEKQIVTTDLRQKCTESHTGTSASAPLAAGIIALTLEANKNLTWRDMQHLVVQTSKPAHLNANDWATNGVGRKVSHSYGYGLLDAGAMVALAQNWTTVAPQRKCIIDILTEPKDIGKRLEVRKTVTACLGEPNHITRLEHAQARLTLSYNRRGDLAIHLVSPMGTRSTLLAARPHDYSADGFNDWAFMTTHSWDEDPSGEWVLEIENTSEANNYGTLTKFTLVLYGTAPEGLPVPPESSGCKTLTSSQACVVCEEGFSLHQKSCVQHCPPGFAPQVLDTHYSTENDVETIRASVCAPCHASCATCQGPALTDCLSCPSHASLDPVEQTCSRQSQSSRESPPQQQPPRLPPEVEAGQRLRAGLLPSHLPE
UniProt P09958, whole entry, looked up: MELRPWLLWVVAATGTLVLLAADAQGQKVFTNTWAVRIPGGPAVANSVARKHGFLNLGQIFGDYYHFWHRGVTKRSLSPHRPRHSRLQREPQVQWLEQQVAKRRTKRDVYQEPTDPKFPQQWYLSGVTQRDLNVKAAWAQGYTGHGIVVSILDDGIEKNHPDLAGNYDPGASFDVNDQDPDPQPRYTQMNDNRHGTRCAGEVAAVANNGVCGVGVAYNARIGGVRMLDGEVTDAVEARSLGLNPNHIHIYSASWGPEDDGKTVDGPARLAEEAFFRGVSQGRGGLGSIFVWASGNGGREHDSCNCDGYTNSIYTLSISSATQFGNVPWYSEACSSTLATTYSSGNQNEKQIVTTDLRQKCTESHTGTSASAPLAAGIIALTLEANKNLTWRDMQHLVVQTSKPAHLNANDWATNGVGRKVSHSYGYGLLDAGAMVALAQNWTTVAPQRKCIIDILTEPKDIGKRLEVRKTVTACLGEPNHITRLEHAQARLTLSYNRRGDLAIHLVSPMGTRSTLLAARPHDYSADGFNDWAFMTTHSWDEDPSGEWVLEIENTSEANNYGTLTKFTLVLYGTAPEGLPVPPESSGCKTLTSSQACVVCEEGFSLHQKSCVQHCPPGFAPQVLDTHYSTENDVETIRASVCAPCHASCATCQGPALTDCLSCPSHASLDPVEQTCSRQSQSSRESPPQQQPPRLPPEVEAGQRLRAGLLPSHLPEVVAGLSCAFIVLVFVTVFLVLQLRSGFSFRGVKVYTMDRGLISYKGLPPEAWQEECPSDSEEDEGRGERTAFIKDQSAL
UniProt Q07812, whole entry: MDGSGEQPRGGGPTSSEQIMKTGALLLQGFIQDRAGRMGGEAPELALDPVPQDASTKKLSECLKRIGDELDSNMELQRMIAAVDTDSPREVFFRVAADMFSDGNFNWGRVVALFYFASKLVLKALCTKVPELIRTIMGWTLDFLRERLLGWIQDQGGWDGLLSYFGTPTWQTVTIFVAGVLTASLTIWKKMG
UniProt P18825, whole entry: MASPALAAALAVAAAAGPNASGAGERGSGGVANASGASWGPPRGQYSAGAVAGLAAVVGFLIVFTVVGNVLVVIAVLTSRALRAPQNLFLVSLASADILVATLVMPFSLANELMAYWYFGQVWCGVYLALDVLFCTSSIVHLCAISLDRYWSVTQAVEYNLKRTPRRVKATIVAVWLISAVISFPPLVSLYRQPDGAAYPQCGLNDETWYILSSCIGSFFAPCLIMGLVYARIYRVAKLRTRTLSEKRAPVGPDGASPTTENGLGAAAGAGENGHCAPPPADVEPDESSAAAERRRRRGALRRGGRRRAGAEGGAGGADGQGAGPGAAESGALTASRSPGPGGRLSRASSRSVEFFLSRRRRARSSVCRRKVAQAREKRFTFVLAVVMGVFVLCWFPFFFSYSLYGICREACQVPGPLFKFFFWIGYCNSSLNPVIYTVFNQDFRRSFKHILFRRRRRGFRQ
UniProt Q96SW2, whole entry: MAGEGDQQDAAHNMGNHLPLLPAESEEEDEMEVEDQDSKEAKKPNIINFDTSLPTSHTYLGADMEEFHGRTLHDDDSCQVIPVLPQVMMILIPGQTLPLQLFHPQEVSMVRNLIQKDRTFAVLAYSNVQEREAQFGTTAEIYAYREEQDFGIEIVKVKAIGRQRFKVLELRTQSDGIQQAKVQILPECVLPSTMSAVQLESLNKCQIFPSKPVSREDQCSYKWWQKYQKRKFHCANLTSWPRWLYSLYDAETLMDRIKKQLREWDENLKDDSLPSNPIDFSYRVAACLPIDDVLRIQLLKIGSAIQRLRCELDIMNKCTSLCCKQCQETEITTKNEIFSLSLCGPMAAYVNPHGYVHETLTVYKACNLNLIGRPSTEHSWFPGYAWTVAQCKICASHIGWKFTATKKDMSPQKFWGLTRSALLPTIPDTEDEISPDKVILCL
UniProt Q05769, 18-604 limits assumed: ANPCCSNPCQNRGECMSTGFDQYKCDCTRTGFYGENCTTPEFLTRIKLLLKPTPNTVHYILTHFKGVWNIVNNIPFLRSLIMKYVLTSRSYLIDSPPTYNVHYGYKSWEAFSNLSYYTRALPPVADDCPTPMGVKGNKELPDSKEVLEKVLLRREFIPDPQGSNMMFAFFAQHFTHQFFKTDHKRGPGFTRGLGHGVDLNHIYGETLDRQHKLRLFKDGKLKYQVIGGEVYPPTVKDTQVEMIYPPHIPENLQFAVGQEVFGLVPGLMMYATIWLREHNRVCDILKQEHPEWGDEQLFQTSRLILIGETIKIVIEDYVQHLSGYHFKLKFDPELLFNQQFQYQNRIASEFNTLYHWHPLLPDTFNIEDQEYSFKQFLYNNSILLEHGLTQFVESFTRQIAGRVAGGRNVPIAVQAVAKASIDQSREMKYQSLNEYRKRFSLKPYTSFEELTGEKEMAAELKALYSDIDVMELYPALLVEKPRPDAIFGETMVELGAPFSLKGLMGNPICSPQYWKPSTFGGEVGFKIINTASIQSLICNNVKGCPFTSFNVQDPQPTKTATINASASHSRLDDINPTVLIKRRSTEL
UniProt Q2TR58, 19-280 limits assumed: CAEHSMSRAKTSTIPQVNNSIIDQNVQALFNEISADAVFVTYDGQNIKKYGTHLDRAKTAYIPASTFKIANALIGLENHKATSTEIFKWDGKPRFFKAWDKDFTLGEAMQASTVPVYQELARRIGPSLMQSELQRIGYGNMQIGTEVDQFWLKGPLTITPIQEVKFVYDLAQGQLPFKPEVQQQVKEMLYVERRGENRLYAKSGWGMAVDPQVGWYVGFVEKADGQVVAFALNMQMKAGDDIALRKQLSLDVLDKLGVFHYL
UniProt P03420, 26-109 partner limits assumed: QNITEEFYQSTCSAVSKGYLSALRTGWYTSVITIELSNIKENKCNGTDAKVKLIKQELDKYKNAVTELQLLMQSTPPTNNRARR
UniProt P03420, 137-513 with tags or gaps I379V/M447V/S155C/S190F/S290C/V207L limits assumed: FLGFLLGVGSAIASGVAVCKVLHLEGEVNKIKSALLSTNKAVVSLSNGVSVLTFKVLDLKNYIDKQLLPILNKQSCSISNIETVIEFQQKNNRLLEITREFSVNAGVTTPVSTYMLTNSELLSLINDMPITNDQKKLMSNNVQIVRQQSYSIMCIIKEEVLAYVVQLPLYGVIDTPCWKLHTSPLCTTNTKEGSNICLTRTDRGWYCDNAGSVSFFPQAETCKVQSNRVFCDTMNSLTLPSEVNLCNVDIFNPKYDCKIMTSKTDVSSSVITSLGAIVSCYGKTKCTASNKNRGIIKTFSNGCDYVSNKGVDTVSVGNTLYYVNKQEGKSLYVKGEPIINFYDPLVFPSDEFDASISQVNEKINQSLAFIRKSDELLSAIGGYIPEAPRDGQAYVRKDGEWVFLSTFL
UniProt P22303, 32-614 limits assumed: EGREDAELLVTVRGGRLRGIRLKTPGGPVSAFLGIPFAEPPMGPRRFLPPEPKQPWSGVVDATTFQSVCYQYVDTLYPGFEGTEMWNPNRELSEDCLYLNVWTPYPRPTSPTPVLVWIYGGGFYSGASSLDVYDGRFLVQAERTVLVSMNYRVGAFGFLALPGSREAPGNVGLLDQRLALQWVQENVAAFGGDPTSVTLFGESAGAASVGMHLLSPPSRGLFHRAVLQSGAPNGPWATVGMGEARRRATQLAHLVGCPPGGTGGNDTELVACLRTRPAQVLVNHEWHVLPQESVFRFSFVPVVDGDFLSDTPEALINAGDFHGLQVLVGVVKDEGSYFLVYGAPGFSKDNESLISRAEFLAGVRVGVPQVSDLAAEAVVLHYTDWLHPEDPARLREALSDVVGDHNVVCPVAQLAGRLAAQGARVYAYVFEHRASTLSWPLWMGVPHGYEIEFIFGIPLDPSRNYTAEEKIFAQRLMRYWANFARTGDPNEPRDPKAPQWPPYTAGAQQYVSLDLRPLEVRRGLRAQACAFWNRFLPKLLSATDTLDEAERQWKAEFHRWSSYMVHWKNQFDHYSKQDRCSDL
UniProt P35869, whole entry, looked up: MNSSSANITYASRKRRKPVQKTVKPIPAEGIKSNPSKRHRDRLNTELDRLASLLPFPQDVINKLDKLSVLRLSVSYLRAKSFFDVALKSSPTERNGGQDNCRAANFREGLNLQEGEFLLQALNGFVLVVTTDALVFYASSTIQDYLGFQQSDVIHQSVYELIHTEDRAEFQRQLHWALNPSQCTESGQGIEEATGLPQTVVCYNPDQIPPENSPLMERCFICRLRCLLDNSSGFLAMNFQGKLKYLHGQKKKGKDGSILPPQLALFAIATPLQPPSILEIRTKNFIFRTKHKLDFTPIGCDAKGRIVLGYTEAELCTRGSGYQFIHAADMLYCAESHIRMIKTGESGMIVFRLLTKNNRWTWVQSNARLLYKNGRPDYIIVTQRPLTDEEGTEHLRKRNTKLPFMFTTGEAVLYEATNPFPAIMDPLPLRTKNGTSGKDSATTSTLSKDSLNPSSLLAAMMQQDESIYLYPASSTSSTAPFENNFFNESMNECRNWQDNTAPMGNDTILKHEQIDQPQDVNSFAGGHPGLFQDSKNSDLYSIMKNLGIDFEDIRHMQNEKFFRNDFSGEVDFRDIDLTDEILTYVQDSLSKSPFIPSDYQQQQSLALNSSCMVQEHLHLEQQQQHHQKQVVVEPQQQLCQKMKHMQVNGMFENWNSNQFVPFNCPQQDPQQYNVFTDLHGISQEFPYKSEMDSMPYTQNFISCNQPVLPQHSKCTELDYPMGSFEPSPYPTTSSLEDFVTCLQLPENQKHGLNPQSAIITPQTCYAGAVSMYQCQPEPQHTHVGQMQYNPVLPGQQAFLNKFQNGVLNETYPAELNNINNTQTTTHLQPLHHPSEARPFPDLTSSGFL
UniProt P52699, 19-246 limits assumed: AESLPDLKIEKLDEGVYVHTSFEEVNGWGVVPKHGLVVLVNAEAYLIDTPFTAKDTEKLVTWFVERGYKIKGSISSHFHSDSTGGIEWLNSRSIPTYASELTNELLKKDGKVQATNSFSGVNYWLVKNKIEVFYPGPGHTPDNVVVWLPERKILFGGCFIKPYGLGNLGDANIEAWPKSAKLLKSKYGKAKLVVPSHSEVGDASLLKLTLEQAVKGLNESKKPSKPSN

| Compound | target or system | assay | test system | conditions | scale | measurement | value |
| --- | --- | --- | --- | --- | --- | --- | --- |
| NC[C@@H](NC[C@@H]1CCCN1C[C@@H](CO)NC[C@@H](NCCC1CC2CCC1C2)c1ccccc1)c1ccccc1 (stereo partly shown) | Acinetobacter baumannii | bacterial growth |  | 16 µM, fold shift of IC50, added: amikacin |  | potentiation of amikacin | 3.3 fold |
| OC(CN1CCNCC1)Cn1c2ccccc2c2cc(Br)ccc21 (stereo not shown) | BAX (Homo sapiens, UniProt Q07812) | ligand-observed 1H NMR |  | 100 µM, 10 µM BAX | relative to: compound without BAX | chemical shift perturbation | 6 Hz |
| C#CCCCN1C(=O)[C@@]2(CN2[S@@+]([O-])C(C)(C)C)c2ccccc21 (stereo partly shown) | MYC (Homo sapiens, UniProt P01106) | protein degradation, degrader, HiBiT | HEK293-LgBiT | 50 µM, 24 h |  | protein level reduction | > 50% |
| O=C(N[C@H]1CCCC[C@@H]1O)C1CN(Cc2ccc(-n3cccn3)cc2)c2ccccc2O1 (stereo partly shown) | CHRM1 (Homo sapiens, UniProt P11229) | calcium mobilization, agonist | high-expression cell line |  | relative to: acetylcholine max | efficacy | 22% |
| COc1ccc(CN[C@@H]2CO[C@H](C(c3ccccc3)c3ccccc3)C[C@H]2O)cc1 | ADRA2C (Homo sapiens, UniProt P18825) | radioligand binding |  | 10 µM, added: [3H]clonidine |  | inhibition | 32.9% |
| N#Cc1ccccc1C(=O)Oc1c(Br)cc(Br)cc1CNC(=O)c1ccccc1[N+](=O)[O-] | lasR | thermal stability, differential scanning fluorimetry |  |  |  | melting temperature | 64.5 °C |
| C#CCN1CC[C@]23c4c5ccc(O)c4O[C@H]2[C@H](NC(=O)c2ccc(N=[N+]=[N-])c([125I])c2)CC[C@@]3(O)[C@H]1C5 | Oprm1 | binding | CHO cell membranes | 0.1 nM, 25 °C |  | dissociation half-life (slow phase) | 2.4 h |
| [11CH3]Nc1ccc(C(=O)C2CCN(C3Cc4ccccc4CC3O)CC2)cc1 (single isomer, unassigned) |  |  | Sprague-Dawley rat, heart | intravenous, dose not given, 5 min |  | radioactivity uptake | 0.49 %ID/g |
| CCn1c(SCC(=O)Nc2ccc(C(C)C)cc2)nnc1-c1cccnc1 | Orco | calcium mobilization, agonist | HEK293 expressing Drosophila Orco |  | relative to: VUAA1 | efficacy | 127% |
| O=[N+]([O-])c1ccc(N=Nc2c(O)ccc3cc(S(=O)(=O)O)ccc23)cc1 | Bcl-2-related protein A1 (Mus musculus, UniProt Q07440, C113S/P104K) | binding, inhibitor, fluorescence polarization competition |  | 100 µM, overnight, 20 °C, added: FITC-Noxa peptide 375 nM | relative to: peptide without protein | Noxa peptide bound | 43.5% |
| O=C(NC1CCN(c2ncnc3[nH]cnc23)CC1)c1cccc(NS(=O)(=O)c2ccc(Cl)cc2)c1 | A549-ACE2 |  |  | 0.03048 µM |  | viability | 101% |
| C[C@H](CS)C(=O)N[C@H](Cc1c[nH]c2ccccc12)C(=O)O | Enterobacter aerogenes |  | VIM-1 producing | 25 µM, added: meropenem |  | MIC of meropenem | 8 µg/mL |
| COc1ccc2c(c1)sc1nc(-c3ccc4c(c3)CN(C3CCC(=O)NC3=O)C4=O)c(NCc3ccccc3)n12 (stereo not shown) | WEE1/CRBN (Homo sapiens, UniProt P30291+Q96SW2) | degrader, HiBiT | Jurkat | 5 h |  | Dmax | 83% |
| CC(CCN[C@H](CN[C@H](CO)CN1CCC[C@H]1CN[C@H](CN)c1ccccc1)c1ccccc1)c1ccccc1 (stereo partly shown) | Klebsiella pneumoniae | bacterial growth |  | compound alone |  | IC50 | > 24 µM |
| COc1ccc2c(c1)c(CC(=O)NCCCCNC(=O)CCC(=O)OC1c3cc4c(cc3C(c3cc(OC)c(OC)c(OC)c3)C3C(=O)OCC13)OCO4)c(C)n2C(=O)c1ccc(Cl)cc1 (stereo not shown) | Ptgs2 (Mus musculus, UniProt Q05769) |  |  | concentration not given, plateau, high concentration |  | remaining activity | 20% |
| C=CCN1CC[C@]23c4c5ccc(O)c4O[C@H]2[C@H](NC(=O)c2ccc(N=[N+]=[N-])c([125I])c2)CC[C@@]3(O)[C@H]1C5 | Oprm1 | binding | CHO cell membranes | 0.1 nM, 25 °C |  | fast dissociation half-life | 4.6 min |
| COC(=O)[C@@]1(C)C=C(C(=O)Nc2ccc(C)c(C(=O)Nc3ccc(Nc4nccc(-c5cccnc5)n4)cc3)c2)C(=O)CC1 | MAPK8 | kinase activity, inhibitor |  | 2.788e-05 µM, unit not given, added: 10 mM GSH | relative to: DMSO | remaining activity | 0.963 |
| CC(C)C[C@@H](NC(=O)[C@H](NC(=O)[C@H]1CCCN1)[C@H](C)O)C(=O)N[C@H](Cc1c[nH]cn1)C(=O)N[C@@H](C(=O)N[C@H](Cc1c[nH]cn1)C(=O)N[C@H](CC(N)=O)C(=O)N[C@H](CCCNC(=N)N)C(=O)N[C@H](CCCNC(=N)N)C(=O)N[C@H](CCCNC(=N)N)C(=O)N[C@H](CCCNC(=N)N)C(=O)N[C@H](CCCNC(=N)N)C(N)=O)[C@H](C)O |  |  | healthy human, plasma | 1 160 mg daily, day 14, mean |  | Tmax | 1.3 h |
| CC(=O)NCCCC[C@H](NC(C)=O)C(N)=O | HDAC8 | deacetylation, substrate |  | 25 °C, added: 150 nM enzyme |  | kcat | 0.011 ± 0.003 s⁻¹ |

| Compound | target or system | assay | test system | conditions | scale | measurement | value |
| --- | --- | --- | --- | --- | --- | --- | --- |
| O=S(=O)(O)c1ccc2c(c1)Cc1cc(S(=O)(=O)O)ccc1-2 | Beta-lactamase (blaOXA-33, Acinetobacter baumannii, UniProt Q8RLA6) | enzyme activity, inhibitor |  |  |  | ligand efficiency | 0.29 |
| CC(=O)N[C@@H](CCCNC(=N)N)C(=O)N[C@H](C(=O)N[C@@H](CCCNC(=N)N)C(=O)N[C@@H](CCCNC(=N)N)C(=O)Nc1ccc2c(C)cc(=O)oc2c1)C(C)C | FURIN | substrate |  | pH 7 |  | kcat | 0.7 s⁻¹ |
| Nc1cc(S(=O)(=O)O)cc2cc(S(=O)(=O)O)cc(O)c12 | Beta-lactamase OXA-58 (OXA-58, Acinetobacter baumannii, UniProt Q2TR58) | enzyme activity, inhibitor |  |  |  | ligand efficiency | 0.31 |
| COC(=O)[C@@]1(C)C=C(C(=O)Nc2cc(C(=O)Nc3ccc(Nc4nccc(-c5cccnc5)n4)cc3)ccc2C)C(=O)CC1 | MAPK8 | kinase activity, inhibitor |  | 0.02032 µM, unit not given, added: 10 mM GSH | relative to: DMSO | remaining activity | 0.433 |
| CS(=O)(=O)CCCn1c(Cn2c(=O)n(C3CC3)c3ccncc32)nc2cc(Br)ccc21 | Fusion glycoprotein F0, prefusion DS-Cav1 (Human respiratory syncytial virus A, UniProt P03420, I379V/M447V/S155C/S190F/S290C/V207L) | isothermal titration calorimetry | respiratory syncytial virus A2, PBS with 1% DMSO | 25 °C |  | entropy term (−TΔS) | 8.9 ± 0.42 kcal/mol |
| CN1CC[C@]23c4c5ccc(O)c4O[C@H]2c2ncc(-c4ccc(Cl)cc4)cc2C[C@@]3(OCCCc2ccccc2)[C@H]1C5 |  | tolerance | CD-1 mouse, chemotherapy-induced neuropathy | sc, 3.2 mg/kg twice daily, 4 days |  | days to zero efficacy | 4.3 days |
| C[C@H](NC(=O)[C@H](CCC(N)=O)NC(=O)[C@H](CCCNC(=N)N)NC(=O)[C@H](CCCCN)NC(=O)[C@H](CCC(=O)O)NC(=O)[C@H](CCCNC(=N)N)NC(=O)[C@H](CCCCN)NC(=O)[C@H](Cc1cnc[nH]1)NC(=O)c1ccccc1N)C(=O)N[C@@H](CCCCN)C(=O)N[C@@H](Cc1cnc[nH]1)C(=O)N[C@@H](CCC(N)=O)C(=O)NCCNc1ccc([N+](=O)[O-])cc1[N+](=O)[O-] | FURIN | substrate |  | pH 7 |  | Km | 2.7 µM |
| CO[P@@]1(=O)OC[C@H]2COC(=O)C2=C(C)O1 (relative stereo) | ACHE (Homo sapiens, UniProt P22303) | enzyme activity, inhibitor |  |  |  | k-2 | 0 min⁻¹ |
| COc1cccc(C(=O)c2n[nH]c3ccccc23)c1 | AHR (Homo sapiens, UniProt P35869) | reporter gene, agonist |  |  | relative to: ITE | Emax | 87 ± 6% |
| O=C(Oc1c(Br)cc(Br)cc1CNC(=O)c1ccccc1[N+](=O)[O-])c1ccccc1 | lasR | thermal stability, differential scanning fluorimetry |  |  |  | melting temperature | ~64 °C and 63.5 °C |
| CC1(C)SCN(C(=O)[C@@H](O)[C@H](Cc2ccccc2)NC(=O)COc2ccccc2)[C@@H]1C(=O)N[C@H]1c2ccccc2C[C@H]1O | Gag-Pol polyprotein, protease (gag-pol, Human immunodeficiency virus type 1 group M subtype B, UniProt P04585, L521I/L551I/Q495K) | isothermal titration calorimetry |  | concentration not given, pH 5.0, 25 °C, 2% DMSO |  | -TΔS of binding | -6.328 ± 0.033 kcal/mol |
| NCCNCCSc1ccccc1 |  | spectrophotometry |  | pH 6.6 |  | pKa | 6.24 |
| O=C(NCc1cc(Br)cc(Br)c1O)c1ccccc1[N+](=O)[O-] | lasR | thermal stability, differential scanning fluorimetry |  |  |  | melting temperature | 50.5 ± 0.5 °C |
| O=C(NC1CCN(c2ncnc3[nH]cnc23)CC1)c1cccc(S(=O)(=O)Nc2ccc(Cl)cc2)c1 | A549-ACE2 |  |  | 0.01016 µM |  | viability | 100% |
| COC(=O)[C@@H](CS)N1C(=O)c2ccc(N(C)C)cc2C1=O | Metallo-beta-lactamase type 2 (Serratia marcescens, UniProt P52699) | probe |  | 10 µM, probe:enzyme 1:3, added: ZnSO4 10 µM | relative to: probe alone | fluorescence increase | 3.8 fold |
| O=C(CC1CCCC1)NC1CCN(c2ncnc3c2nc(-c2ccccc2Cl)n3-c2ccc(Cl)cc2)CC1 | CNR1 (Homo sapiens, UniProt P21554) | calcium mobilization, antagonist, FLIPR | CHO-K1 with Gαq16 | added: CP55940 |  | Ke | 3 nM |
| CC(=O)NCCCC[C@H](NC(C)=O)C(=O)N[C@@H](Cc1c[nH]c2ccccc12)C(N)=O | HDAC8 | deacetylation, substrate |  | 25 °C, added: 150 nM enzyme |  | kcat | > 0.02 s⁻¹ |
| CCc1ccc(NC(=O)CSc2nnc(-c3cccnc3)n2C2CC2)cc1 | Orco | calcium mobilization, agonist | HEK293 expressing Drosophila Orco |  | relative to: VUAA1 | efficacy | 171% |
